Measurements of several laboratories.
Each numbered part is a random draw from the data of one study; scales do not carry over between parts.

Block 1 — target: UBE2Q2 UBC core domain (UniProt Q8WVN8); method: yeast two-hybrid; matrix: yeast; setting: mostly zero background; reference: not given; direction: higher = stronger interaction
Sequence of UniProt Q8WVN8 (whole entry, looked up): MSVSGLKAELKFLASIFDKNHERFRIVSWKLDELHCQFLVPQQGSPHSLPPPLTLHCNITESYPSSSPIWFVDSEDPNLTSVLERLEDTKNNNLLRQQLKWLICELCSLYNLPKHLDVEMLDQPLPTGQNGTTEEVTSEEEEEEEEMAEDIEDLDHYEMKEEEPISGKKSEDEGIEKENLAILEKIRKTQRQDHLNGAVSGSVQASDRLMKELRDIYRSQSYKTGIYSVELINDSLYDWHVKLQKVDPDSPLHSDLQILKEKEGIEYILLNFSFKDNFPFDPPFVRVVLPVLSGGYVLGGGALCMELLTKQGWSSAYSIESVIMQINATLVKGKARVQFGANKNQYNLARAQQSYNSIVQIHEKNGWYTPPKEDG
B1: RNF183 RING domain (UniProt Q96D59); chain EQQGRELEAECPVCWNPFNNTFHTPKMLDCCHSFCVECLAHLSLVTPARRRLLCPLCRQPTVLASGQP
B2: TRIM37 RING domain (UniProt O94972); chain SVESIAEVFRCFICMEKLRDARLCPHCSKLCCFSCIRRWLTEQRAQCPHCRAPLQLRELVN
B3: MEX3B RING domain (UniProt Q6ZN04); chain SGLRRKGSRDCSVCFESEVIAALVPCGHNLFCMECANRICEKSEPECPVCHTAVTQAIRIF
B4: RLIM RING domain (UniProt Q9NVW2); chain SFGENDALKTCSVCITEYTEGNKLRKLPCSHEYHVHCIDRWLSENSTCPICRRAVLASGNRE
B5: MKRN2 RING domain (UniProt Q9H000); chain FAFQASQDKVCSICMEVILEKASASERRFGILSNCNHTYCLSCIRQWRCAKQFENPIIKSCPECRVISEFVIPSV
B6: MYCBP2 RING domain (UniProt O75592); chain TSLKQDADDMCMICFTEALSAAPAIQLDCSHIFHLQCCRRVLENRWLGPRITFGFISCPICKNKINHIVLKD
B7: RNF187 RING domain (UniProt Q5TA31); chain ALPAGPAEAACALCQRAPREPVRADCGHRFCRACVVRFWAEEDGPFPCPECADDCWQRAVEP
B8: RNF2 RING domain (UniProt Q99496); chain SPRSLHSELMCPICLDMLKNTMTTKECLHRFCADCIITALRSGNKECPTCRKKLVSKRSLR
Sequence | lacZ reporter activity
B1 (RNF183 RING domain) | 0
B2 (TRIM37 RING domain) | 0
B3 (MEX3B RING domain) | 0
LGTKLEAKYLCSACRNVLRRPFQAQCGHRYCSFCLASILSSGPQNCAACVHEGIYEEGIS (TRAF2 RING domain (UniProt Q12933)) | 0
RYRQMEERITCPICIDSHIRLVFQCGHGACAPCGSALSACPICRQPIRDRIQIF (MIB2 RING domain (UniProt Q96AX9)) | 0
B4 (RLIM RING domain) | 0
KPDKMEETLTCIICQDLLHDCVSLQPCMHTFCAACYSGWMERSSLCPTCRCPVERICKNH (CHFR RING domain (UniProt Q96EP1)) | 0
B5 (MKRN2 RING domain) | 0
AEADPLGRFTCPVCLEVYEKPVQVPCGHVFCSACLQECLKPKKPVCGVCRSALAPGVRAV (RNF114 RING domain (UniProt Q9Y508)) | 0
B6 (MYCBP2 RING domain) | 0
PEELAVNNDDCAICWDSMQAARKLPCGHLFHNSCLRSWLEQDTSCPTCRMSLNIADNNR (AMFR RING domain (UniProt Q9UKV5)) | 0
B7 (RNF187 RING domain) | 0
B8 (RNF2 RING domain) | 0

Block 2 — method: RNA Bind-n-Seq; molecule type: RNA; matrix: in vitro; tested at: not given; reference: input RNA pool; direction: higher = stronger binding
Target: RING finger protein unkempt homolog, zinc fingers 1-6, GST-SBP tag (UNK, Homo sapiens, UniProt Q9C0B0, residues 30-357)
Sequence of UniProt Q9C0B0 (30-357, looked up): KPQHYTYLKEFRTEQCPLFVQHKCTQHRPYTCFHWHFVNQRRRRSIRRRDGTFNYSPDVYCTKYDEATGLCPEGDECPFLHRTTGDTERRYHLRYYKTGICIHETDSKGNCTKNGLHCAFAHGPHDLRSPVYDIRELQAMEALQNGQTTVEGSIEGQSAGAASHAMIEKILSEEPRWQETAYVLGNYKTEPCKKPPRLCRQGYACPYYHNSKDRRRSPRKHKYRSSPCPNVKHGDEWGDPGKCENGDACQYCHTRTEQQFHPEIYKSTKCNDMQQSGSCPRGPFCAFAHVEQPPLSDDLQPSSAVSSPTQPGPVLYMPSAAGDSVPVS
Setting: RNA with constant flanks, human-mouse chimeric sites, ends assumed
Sequence | bound/input enrichment [ratio]
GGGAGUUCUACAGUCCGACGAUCUGGCGCCUGCGCUCCCCACUCGUGUUUUUAAGUGUAUAAGAUGUAUACAUGUGUAUUUACAAUUGAGCUUUUGUUACAUAAUGCUGAAAUGCUACUGGAGAUUAUGAAAAAUGUUUCAAUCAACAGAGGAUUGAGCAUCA | 0.135
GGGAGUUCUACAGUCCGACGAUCUUUGUAAUAUCUGUAAAAGGUUCCCCCCCCCUACUGUCAAAAAAUAUGCAUGUAUAGUAAUUAGGACUUCAUUCCUCCAUGUUUUCUUCCCUUAUCUUACUGUCAUUGUCCUAAAACCUUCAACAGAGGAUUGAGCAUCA | 2.18
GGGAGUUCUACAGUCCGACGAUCAAAGCCCUUGAAGAAAAAAAAAACUCGAACAGAUUUGACAAGGGUAGCCAGCUUGGAGUCUAGCAACUUGCCAAUGUGUUUACCAAUCUGGGGGCUUGUUUUUCUUUCCCUUCCUUAAAUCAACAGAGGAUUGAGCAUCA | 0.45
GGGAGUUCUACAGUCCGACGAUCCAGCUGCAGACAGAAAAGGAUGAGAAGGAGCUGUAUAAGGUACAUUUGAAGAAUACAGAAAUAGAAAAUACGAAGCUUGUGUCAGAGAUACAGACUUUAAAAAAUUUAGAUGGGAACAAACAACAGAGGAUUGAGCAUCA | 2.79
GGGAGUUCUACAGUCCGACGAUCGCCACCAGAUCCCAGAAACAUGACCCUUGCUGCCUACAAAGAGAAGAUGAAGGAGCUCCCACUAGUGUCCUUGUUCUGCUCUUGCUUCCUGGCCGAUCCCCUGAAUAAGUCGUCCUACAACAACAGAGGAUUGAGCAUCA | 0.544
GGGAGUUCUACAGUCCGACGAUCUCUGAGGUACCACUGAAGAGACCUUAAAAGAAUCAUUUGAGGGCUCUGUUCGUGCAAGAAUAGUCACUGAUCGGGAAACUGGUUCUUUCCAAAGGGUUGGUUUUGUAGACUUUAAUAGUGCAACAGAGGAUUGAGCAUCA | 0.991
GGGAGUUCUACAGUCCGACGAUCACAGUUAUACACUGUUGUUUCAUUUUCAUAUAUUCUUGUAGUGUCUGCUUGCCUGUGACUUCUGGUAAAAUAAAAUAUUAAAAUUACAAUAUUUUAGCAUGGUAUUUAACAUUUUCUAAACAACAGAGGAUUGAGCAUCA | 1.73
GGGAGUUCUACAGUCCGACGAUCGAGCCAAGCCGGCAGUUUGUAAAGGACUCAAUUCGGCUGGUUAAAAGAUGCACCAAACCCGACAGAAAAGAAUUCCAGAAGAUUGCCAUGGCAACAGCUAUAGGAUUUGCUAUCAUGGGACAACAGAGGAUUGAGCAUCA | 0.167

Block 3 — method: protein binding microarray; molecule type: double-stranded DNA, one strand shown; matrix: in vitro; tested at: not given; reference: not given; direction: higher = stronger binding
Target: Histone acetyltransferase KAT6A, winged helix 1, GST fusion (KAT6A, Homo sapiens, UniProt Q92794, residues 1-85)
Setting: 8-mer, flanks averaged, mean of 2 arrays, mostly near background
Residues (chain): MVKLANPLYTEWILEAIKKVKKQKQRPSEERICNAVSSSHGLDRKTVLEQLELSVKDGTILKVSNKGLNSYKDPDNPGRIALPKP
Sequence | E-score
CTACGTGC | 0.00666
CCTCGCTC | 0.0811
AGCGAAGG | 0.046
GATCTGAA | -0.188
GGAAGAGA | -0.0506
GCCCTAGA | -0.0591
AGACAGGG | -0.0959
AAAACACT | 0.0388
CAGGCAGC | -0.0358
ATGGCCCG | 0.309
ATCTCTGG | -0.186
CGGATGGA | -0.0552
ACAAATCT | -0.185
CACCTTTC | -0.0708
GGTCTTAC | 0.0972
GTCCTTTA | -0.117
TAAAGTCA | -0.17
GCAAATTA | -0.134
CATTTGCG | 0.116
CTATCCAC | -0.0219
AAACAGCA | -0.235

Block 4 — method: protein-binding microarray; molecule type: double-stranded DNA, one strand shown; matrix: in vitro; tested at: not given; direction: higher = stronger binding
Target: Protein C-ets-1 (ETS1, Homo sapiens, UniProt P14921, residues 1-441, Y397A, full length assumed)
Setting: k-mer, scored over probes, only values ≥0.25
Residues (chain): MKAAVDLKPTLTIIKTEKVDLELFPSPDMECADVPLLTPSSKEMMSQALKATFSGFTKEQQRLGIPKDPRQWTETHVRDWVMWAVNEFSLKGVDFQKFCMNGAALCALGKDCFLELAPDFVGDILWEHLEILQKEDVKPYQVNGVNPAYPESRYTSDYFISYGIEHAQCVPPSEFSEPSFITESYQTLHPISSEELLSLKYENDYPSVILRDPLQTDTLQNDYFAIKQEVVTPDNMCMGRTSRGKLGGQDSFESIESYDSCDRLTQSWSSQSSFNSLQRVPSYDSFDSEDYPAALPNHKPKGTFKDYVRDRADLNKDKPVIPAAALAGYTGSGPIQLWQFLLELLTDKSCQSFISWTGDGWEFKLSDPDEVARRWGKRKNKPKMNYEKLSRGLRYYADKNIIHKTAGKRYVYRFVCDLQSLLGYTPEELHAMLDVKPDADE
Sequence | E-score
CATGGCAA | 0.257
ACGCCCAC | 0.279
ACAAAACG | 0.41
AAATACAA | 0.27
GGATGACA | 0.252
TCCCCGCA | 0.263
CCCGGAAA | 0.328
ACGTATAC | 0.297
ATAGCAAA | 0.334
CAACAACA | 0.315
GCACTTCC | 0.33
CATTTGTC | 0.293
ATATACTG | 0.266
GGTTGTCA | 0.315
AGGATGTA | 0.271
TAATGTAA | 0.257
CATTTGTA | 0.285
ACGGCAAA | 0.343

Some of these lines once more (block 1):
Sequence | lacZ reporter activity
B1 (RNF183 RING domain) | 0
B5 (MKRN2 RING domain) | 0
B8 (RNF2 RING domain) | 0
